Measurements collected from several papers.
Numbered parts are unrelated; each lists some results of a single study. Substitutions count along the parent as printed.

Study 1
Target: Interferon regulatory factor 7, full length, phosphomimetic (IRF7, Homo sapiens, UniProt Q92985, residues 1-503, S101K/S471D/S472D/S475D/S476D/S477D/S483D/S484D/S487D)
Technique: protein-binding microarray
Molecule type: double-stranded DNA, one strand shown
Medium: in vitro
Concentration: 250 nM
Notes: 60-bp whole probe
With: salmon DNA 0.4 mg/ml
Baseline: random background probes
Reading: higher = stronger binding
Constant ends, left off below: GCCTAGCAC … GTCTTGATTCGCTTGACGCTGCTG
Residues (chain): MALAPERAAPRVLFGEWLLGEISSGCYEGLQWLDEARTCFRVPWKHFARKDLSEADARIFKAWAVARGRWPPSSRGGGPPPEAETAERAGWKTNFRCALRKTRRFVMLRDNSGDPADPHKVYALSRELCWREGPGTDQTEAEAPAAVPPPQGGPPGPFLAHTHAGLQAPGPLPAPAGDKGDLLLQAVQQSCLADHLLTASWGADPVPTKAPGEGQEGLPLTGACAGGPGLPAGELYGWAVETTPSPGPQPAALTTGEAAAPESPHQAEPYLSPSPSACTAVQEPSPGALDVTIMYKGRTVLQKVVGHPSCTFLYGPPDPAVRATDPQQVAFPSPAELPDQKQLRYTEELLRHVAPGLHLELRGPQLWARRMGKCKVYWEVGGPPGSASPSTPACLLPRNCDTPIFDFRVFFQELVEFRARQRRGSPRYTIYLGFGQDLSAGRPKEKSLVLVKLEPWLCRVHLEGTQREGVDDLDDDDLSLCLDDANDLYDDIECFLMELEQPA
Sequence	log fluorescence
CTAGGTTTCCTTCTCCTTTAGTGCTAG	2.92 z-score
CGCGCTTCTCGGCGGCGAAGGTGCTAG	0.348 z-score
ATTGCTTTCTCTTTCACTGCGTGCTAG	1.08 z-score
TTAGGATTGGACACTGGGTTAGTGCTA	-0.347 z-score
GTGTTACTAAAATTTCATGAAGTGCTA	1.51 z-score
GACGATATCGGGTATCTAGACGTGCTA	-0.0753 z-score
GACGGTATCGCCACTGGGGACGTGCTA	-0.56 z-score
GACGGACTGGGTCTCGGCACGTGCTAG	-0.73 z-score
GACGGTTGCGACACTGGGGACGTGCTA	-0.53 z-score
TTAGGGTTCCTTATCCTTTAGTGCTAG	0.397 z-score
TTATGACTGCTTCTCCTTTAGTGCTAG	0.203 z-score
TACAGGATGGTTTTCAGAGAGTGCTAG	-0.282 z-score
TCAGGAGTCATTCTCAAACTGTGCTAG	-0.509 z-score
TCAAGTATGTTCCTTATTACTGTGCTA	0.904 z-score
GACGGACTGCTTATCTTGACGTGCTAG	-0.554 z-score
TTACGTATCCTACTGCTTTAGTGCTAG	0.321 z-score

Study 2
Target: RNA binding protein fox-1 homolog 2, RRM domain, GST-SBP tag (RBFOX2, Homo sapiens, UniProt O43251-10, residues 100-194)
Technique: RNA Bind-n-Seq
Molecule type: RNA
Medium: in vitro
Concentration: 365 nM
Notes: natural RNA segment, single round, ends assumed
Baseline: no-protein control
Reading: higher = stronger binding
Construct (chain): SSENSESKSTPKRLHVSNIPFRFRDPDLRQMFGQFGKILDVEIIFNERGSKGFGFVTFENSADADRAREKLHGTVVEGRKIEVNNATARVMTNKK
Sequence	RBNS enrichment (R)
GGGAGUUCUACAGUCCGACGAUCGUCUGUCCUGUCUGGGCACUAACCUUGGUCCCAUGCAUGUUUAUGUUCUGGGUGGGGCUUUGCCUCUCCACUGGGAAACUGACUUUUGCUGGGUUGAACAGAGUCCCUUAUGGAAUUCUCGGGUGCCAA	0.537
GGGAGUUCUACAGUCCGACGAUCUAUUCAAGAAUGUAUUAAUAAGGCAUUGCCCCCUGUUUGCACUCAGGGUUAAUAUGUCAAAUGAAAUUUAAGAAGGAAAUGGAAGAAUUCAGGUACAUUAAUUGCAUAUUUGGAAUUCUCGGGUGCCAA	4.75
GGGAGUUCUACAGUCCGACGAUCCCUCUGUCCCGAGGUCGUCGUCUGCUUUCUUUUUUGGGUUUCUUUCUAGAAGAUUGAGAAGUGCAUAUGACAGGCUGAGAGCACCUCCCCAAACACACAAGCUCUCAGCCUGGAAUUCUCGGGUGCCAA	0.674
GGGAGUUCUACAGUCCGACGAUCGAUUGUUAGAAAGUGAACUUUGCUCAACCCAGACCCCGGCAGCCCAGGCUGGACCAAGGGUGGGCCUGGCCACCUUCUCUCACUUUGCUGGGGUCUCCUGCUUCAAGCAGUGGAAUUCUCGGGUGCCAA	0.396
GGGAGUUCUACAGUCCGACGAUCUUGUCUCUUCUGUAAAAAUCCAACAUUAGGUAGAACUUGCUGUAAUUUAAAAGUCACAAAGUCAUUUAUAAAAAAUGAAGUGAUUAAAUAUUGACCGAGUAUUGUUGAGUUGGAAUUCUCGGGUGCCAA	0.919
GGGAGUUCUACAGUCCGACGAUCACAGAGUAAAUCAAUUUCUUAAAUUGUUUAACUUUCACGGUACUUCUUGGAAACAAUGACAUUAAACAUAGAUUUGUGCCUUUGUGGCUCAGCCUGCUCUUUCAUAGUCAUGGAAUUCUCGGGUGCCAA	0.247
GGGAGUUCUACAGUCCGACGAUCGGGAAAAGAAAAGGAAGAAAAAGUGCAUAGAGCUGGCCUGGAACACGUCCCGCCGUUGGAGAAGGAGCGCGGGGGCGUUAGUGGACCCGCGCUCCCAUCCCCCACUCUCAUGGAAUUCUCGGGUGCCAA	1.07
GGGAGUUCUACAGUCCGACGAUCUUUGUAAGAAGGCAAUAUUAACCUAAUCACCAUGUAAGCACUCUGGAUGAUGGAUUCCACAAAACUUGGUUUUAUGGUUACUUCUUCUCUUAGAUUCUUAAUUCAUGAGGUGGAAUUCUCGGGUGCCAA	0.746

Study 3
Target: CCNB3, cyclin fold, Cln2 fusion (human)
Technique: yeast growth competition, sequencing
Medium: yeast
Notes: strong parent motif
Baseline: not given
Reading: higher = stronger binding
Starting sequence: RBL2 docking peptide (human); STTRRRLFVENDS
Substitution	normalised enrichment score
R6V	0.919
N11V	0.754
S13W	0.788
L7N	-0.191
S1T	1.01
S1R	1.18
S1L	1.27
N11M	0.915

Mixed results
Substance	target	assay	system	conditions	how to read	quantity	value
PhoQ, residues 284 288 289 292 302 303 AQGLTV	PhoP, residues 12 14 15 18 19 AYFRS (Escherichia coli, UniProt P23836)	Sort-seq, measured: YFP reporter	E. coli	PhoQ-PhoP variant library, with: 10 µM Mg2+	baseline: high Mg2+ state, higher = stronger signaling	fold induction	7.92

Repeated from above (study 1):
Sequence	log fluorescence
TCAAGTATGTTCCTTATTACTGTGCTA	0.904 z-score
GACGGACTGCTTATCTTGACGTGCTAG	-0.554 z-score
